Results collected from several papers.
Protocols differ between the studies behind these lines. Several values in a cell are separate wells, animals, samples, runs or records. ± marks the error that the study gave.
CRBN/Zinc finger protein Aiolos: CRBN/Zinc finger protein Aiolos (Homo sapiens, UniProt Q96SW2+Q9UKT9)
PNLIP: Pancreatic triacylglycerol lipase (PNLIP, Homo sapiens, UniProt P16233)
UniProt P16233, sequence (whole entry, looked up): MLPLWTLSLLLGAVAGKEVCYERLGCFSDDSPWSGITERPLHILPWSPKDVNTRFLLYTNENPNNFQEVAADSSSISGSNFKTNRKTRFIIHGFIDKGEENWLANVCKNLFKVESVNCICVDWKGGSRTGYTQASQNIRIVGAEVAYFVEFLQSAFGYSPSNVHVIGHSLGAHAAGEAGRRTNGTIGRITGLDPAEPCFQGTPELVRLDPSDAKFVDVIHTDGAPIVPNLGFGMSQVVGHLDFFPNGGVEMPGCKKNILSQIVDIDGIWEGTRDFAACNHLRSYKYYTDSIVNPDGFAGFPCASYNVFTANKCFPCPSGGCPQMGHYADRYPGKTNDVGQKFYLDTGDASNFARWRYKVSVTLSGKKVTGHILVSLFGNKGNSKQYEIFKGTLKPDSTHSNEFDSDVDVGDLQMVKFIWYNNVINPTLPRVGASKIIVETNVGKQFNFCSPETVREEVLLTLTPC
CTSS: Cathepsin S (CTSS, Homo sapiens, UniProt P25774)
UniProt P25774, sequence (whole entry, looked up): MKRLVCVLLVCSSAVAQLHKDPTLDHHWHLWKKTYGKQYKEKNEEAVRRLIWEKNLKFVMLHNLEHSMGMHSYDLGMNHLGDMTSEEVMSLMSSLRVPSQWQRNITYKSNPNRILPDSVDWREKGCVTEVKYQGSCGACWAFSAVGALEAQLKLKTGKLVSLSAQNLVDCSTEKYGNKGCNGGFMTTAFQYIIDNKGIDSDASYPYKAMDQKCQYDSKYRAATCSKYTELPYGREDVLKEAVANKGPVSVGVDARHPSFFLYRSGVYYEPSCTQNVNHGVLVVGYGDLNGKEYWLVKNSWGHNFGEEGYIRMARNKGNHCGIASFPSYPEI
MAPK9: Mitogen-activated protein kinase 9 (MAPK9, Homo sapiens, UniProt P45984)
IL1RL2: Interleukin-1 receptor-like 2 (IL1RL2, Homo sapiens, UniProt Q9HB29)
UniProt Q9HB29, sequence (whole entry, looked up): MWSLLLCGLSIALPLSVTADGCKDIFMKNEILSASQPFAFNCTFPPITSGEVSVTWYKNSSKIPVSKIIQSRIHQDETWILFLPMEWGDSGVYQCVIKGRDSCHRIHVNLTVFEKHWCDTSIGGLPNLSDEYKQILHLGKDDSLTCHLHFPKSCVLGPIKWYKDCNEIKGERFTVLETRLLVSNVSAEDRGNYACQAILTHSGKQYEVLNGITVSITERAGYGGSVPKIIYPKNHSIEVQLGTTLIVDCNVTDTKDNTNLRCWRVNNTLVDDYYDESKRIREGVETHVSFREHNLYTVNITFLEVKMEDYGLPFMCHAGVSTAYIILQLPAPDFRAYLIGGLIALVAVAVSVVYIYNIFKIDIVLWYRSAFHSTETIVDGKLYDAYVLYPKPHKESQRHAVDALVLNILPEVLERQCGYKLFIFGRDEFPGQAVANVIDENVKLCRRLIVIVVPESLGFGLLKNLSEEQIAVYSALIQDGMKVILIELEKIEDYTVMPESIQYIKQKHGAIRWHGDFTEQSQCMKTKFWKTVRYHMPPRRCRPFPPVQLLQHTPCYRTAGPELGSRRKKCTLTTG
UniProt P30043, sequence (whole entry, looked up): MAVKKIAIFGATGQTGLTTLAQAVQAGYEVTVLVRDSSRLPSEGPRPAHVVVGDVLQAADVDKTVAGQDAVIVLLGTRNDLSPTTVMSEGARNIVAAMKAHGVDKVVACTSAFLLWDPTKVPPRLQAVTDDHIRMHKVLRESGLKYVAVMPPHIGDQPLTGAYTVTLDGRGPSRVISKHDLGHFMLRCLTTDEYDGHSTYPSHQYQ
UniProt P20151, sequence (whole entry, looked up): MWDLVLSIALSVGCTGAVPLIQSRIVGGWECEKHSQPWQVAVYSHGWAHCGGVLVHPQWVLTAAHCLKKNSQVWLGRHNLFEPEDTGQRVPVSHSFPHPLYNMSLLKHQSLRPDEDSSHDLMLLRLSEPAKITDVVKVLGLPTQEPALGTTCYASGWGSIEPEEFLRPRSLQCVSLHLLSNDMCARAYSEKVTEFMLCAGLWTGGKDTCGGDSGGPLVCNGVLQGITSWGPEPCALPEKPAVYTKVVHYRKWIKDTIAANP
UniProt O75417, sequence (whole entry, looked up): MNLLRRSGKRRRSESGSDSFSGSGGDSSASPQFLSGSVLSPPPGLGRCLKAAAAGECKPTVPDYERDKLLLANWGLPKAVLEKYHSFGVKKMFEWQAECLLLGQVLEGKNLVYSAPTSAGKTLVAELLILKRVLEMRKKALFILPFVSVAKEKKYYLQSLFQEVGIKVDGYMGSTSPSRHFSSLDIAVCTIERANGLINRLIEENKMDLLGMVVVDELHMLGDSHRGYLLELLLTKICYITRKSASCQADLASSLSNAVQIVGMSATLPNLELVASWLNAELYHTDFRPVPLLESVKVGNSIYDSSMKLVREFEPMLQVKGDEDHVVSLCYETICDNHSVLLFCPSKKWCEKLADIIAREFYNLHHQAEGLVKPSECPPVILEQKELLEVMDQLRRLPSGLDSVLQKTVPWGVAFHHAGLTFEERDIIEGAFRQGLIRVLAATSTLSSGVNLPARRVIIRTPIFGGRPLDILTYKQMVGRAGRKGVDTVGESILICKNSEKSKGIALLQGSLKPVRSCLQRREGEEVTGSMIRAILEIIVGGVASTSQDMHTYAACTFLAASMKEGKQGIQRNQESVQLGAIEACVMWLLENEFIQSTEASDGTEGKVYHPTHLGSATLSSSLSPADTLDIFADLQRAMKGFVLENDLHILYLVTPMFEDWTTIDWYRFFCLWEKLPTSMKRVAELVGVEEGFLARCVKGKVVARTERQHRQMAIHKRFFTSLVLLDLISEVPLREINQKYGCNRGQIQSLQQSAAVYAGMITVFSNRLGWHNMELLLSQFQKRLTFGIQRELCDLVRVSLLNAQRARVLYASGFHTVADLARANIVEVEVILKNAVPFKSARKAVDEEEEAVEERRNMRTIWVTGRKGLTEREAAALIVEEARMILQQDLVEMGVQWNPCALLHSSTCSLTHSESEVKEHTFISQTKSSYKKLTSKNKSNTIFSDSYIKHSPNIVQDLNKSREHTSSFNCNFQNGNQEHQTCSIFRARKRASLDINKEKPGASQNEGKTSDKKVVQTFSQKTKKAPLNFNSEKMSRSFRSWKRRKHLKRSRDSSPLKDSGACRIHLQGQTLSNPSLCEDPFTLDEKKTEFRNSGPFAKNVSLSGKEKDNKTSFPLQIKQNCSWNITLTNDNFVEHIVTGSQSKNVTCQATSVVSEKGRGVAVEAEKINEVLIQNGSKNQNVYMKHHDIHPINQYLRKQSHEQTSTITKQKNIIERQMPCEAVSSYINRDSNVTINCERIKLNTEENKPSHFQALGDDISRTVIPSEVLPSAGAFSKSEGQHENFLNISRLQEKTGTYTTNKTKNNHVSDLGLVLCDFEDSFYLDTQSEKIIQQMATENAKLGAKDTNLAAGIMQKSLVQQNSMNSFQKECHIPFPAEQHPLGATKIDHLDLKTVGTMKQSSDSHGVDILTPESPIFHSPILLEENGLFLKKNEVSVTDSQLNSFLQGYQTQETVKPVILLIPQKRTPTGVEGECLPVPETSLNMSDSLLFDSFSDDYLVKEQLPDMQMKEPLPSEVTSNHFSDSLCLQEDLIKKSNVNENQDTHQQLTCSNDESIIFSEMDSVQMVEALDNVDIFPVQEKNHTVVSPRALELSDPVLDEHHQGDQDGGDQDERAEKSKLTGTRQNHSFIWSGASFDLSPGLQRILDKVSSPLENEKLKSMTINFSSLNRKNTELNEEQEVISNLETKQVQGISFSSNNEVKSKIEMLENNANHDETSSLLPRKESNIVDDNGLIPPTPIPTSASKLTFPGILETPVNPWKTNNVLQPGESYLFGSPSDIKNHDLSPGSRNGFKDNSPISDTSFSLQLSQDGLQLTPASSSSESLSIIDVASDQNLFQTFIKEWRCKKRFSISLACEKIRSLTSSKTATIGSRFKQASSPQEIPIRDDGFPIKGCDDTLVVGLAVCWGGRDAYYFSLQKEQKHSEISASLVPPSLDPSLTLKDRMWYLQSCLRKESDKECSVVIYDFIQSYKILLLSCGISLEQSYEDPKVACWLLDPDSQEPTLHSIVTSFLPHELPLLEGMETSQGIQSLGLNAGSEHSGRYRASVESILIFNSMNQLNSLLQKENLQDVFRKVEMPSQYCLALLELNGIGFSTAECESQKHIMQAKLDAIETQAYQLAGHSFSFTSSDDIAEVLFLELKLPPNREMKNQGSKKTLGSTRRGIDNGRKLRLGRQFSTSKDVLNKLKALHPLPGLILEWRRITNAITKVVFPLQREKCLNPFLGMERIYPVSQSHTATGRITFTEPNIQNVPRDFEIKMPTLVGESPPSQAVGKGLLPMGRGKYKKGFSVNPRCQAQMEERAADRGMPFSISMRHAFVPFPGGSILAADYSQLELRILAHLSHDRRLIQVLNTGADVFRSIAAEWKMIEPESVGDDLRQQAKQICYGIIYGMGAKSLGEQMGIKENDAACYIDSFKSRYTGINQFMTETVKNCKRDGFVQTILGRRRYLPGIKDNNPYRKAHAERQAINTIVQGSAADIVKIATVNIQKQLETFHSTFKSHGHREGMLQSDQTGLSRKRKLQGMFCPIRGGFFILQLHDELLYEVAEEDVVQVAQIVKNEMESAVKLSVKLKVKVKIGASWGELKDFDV

O=C1CCC(N2Cc3c(OCc4ccc(CN5CCNCC5)cc4)cccc3C2=O)C(=O)N1 (stereo not drawn)  remaining activity (CRBN/Zinc finger protein Aiolos; protein level, degrader, western blot; NCI-H929; 1 nM, 4 h): 96.6%
O=C1c2cccc(O)c2C(=O)c2cccc(O)c21  remaining activity (PNLIP; enzyme activity, inhibitor, fluorescence; 50 µM): 7.76%
Cc1ccc(C[C@H](NC(=O)CN2CCCc3cc4cc(C(=O)NCCNC(=O)CCCC[C@@H]5SC[C@@H]6NC(=O)N[C@@H]65)c(=O)oc4cc32)C(=O)NC/C=C/S(=O)(=O)c2ccccc2)cc1  remaining activity (CTSS; inhibitor; 5 µM, 60 min, added: Z-Phe-Arg-AMC; reference: uninhibited control): 8%
Cc1cc(NC(=O)c2cccc(N)c2)ccc1Nc1nccc(-c2cccnc2)n1  remaining activity (MAPK9; enzyme activity, inhibitor; 14.81 µM, unit not given; reference: vehicle): 0.183
Cc1cc(C(=O)Nc2nc3cccc(C)c3n2[C@H]2CCCCN(C(=O)/C=C/CN(C)C)C2)ccn1  remaining activity (CDC2-like kinase 1 (Trypanosoma brucei brucei, UniProt Q382U0); kinase activity, ADP-Glo; 0.3125 µM): 22.8%
C#CCOC(=O)[C@@]1(C)C=C(C(=O)Nc2cccc(C(=O)Nc3ccc(C)c(Nc4nccc(-c5cccnc5)n4)c3)c2)C(=O)CC1  remaining activity (MAPK9; enzyme activity, inhibitor; 2.788e-05 µM, unit not given; reference: vehicle): 0.997
N#Cc1cnc2sc(C(=O)O)cc2c1N1CCc2[nH]nc(C(=O)N[C@@H](CC(=O)NCCOCCN3CCOCC3)c3cccc(Br)c3)c2C1  remaining activity (IL1RL2; SEAP reporter gene, antagonist; HEK-Blue IL-36R cells; 0.005 µM, 6 h, added: IL-36 0.01 ng/mL; reference: untreated): 84.5%
O=C(O)CN(CC(=O)O)Cc1cc2c(c(O)c1O)C(=O)c1c(O)cccc1C2=O  remaining activity (PNLIP; enzyme activity, inhibitor, fluorescence; 50 µM): 12.6%
O=C1CCC(N2C(=O)c3cccc4c(Cc5ccc(CN6CCNCC6)cc5)ccc2c34)C(=O)N1 (stereo not drawn)  remaining activity (CRBN/Zinc finger protein Aiolos; protein level, degrader, western blot; NCI-H929; 10 nM, 4 h): 28.2%
COc1ccccc1-c1ccncc1C(=O)Nc1nnc(OCc2ccc(Cl)cc2)s1  remaining activity (DNA polymerase theta, helicase domain (POLQ, Homo sapiens, UniProt O75417); ATPase activity, ADP-Glo; 0.24 µM; reference: 0 µM cpd): 26%
C[n+]1cccc2cc(/C=N/NC(=O)N/N=C/c3ccc4c(ccc[n+]4C)c3)ccc21  ΔTm (hp2 hairpin duplex DNA; FRET melting; 1 µM, added: ds26 10 µM): 0.6 ± 0.3 °C
O=C1CCC(N2C(=O)c3cccc4c(Cc5cnn(C6CCN(C(=O)C7(O)CCC7)CC6)c5)ccc2c34)C(=O)N1 (stereo not drawn)  remaining activity (CRBN/Zinc finger protein Aiolos; protein level, degrader, western blot; NCI-H929; 10 nM, 4 h): 6.11%
COc1cc(Nc2nc(C)cc(-c3cnn4nc(OC)ccc34)n2)cc(C(F)(F)F)c1  remaining activity (PIK3CA (Homo sapiens, UniProt P42336, I800L); inhibitor; 1 µM; reference: control): 46%
O=C1CCC(N2C(=O)c3cccc4c(Cc5cnn(C6CCN(C(=O)C7(O)CC7)CC6)c5)ccc2c34)C(=O)N1 (stereo not drawn)  remaining activity (CRBN/Zinc finger protein Aiolos; protein level, degrader, western blot; NCI-H929; 10 nM, 4 h): 7.19%
CC(C)C[C@H](NC(=O)[C@H](Cc1ccc(O)cc1)NC(=O)[C@@H](CCCNC(=N)N)NC(=O)[C@@H](CO)NC(=O)[C@H](Cc1ccccc1)NC(=O)[C@H](CC1CCCCC1)NC(=O)[C@H](CC(=O)O)NC(=O)CN1CCN(CC(=O)O)CCN(CC(=O)O)CCN(CC(=O)O)CC1)C(=O)N[C@@H](Cc1c[nH]c2ccccc12)C(=O)N[C@@H](CO)C(=O)O [copper-64 labelled]  activity concentration (human, brain; concentration not given, 24 h): 31.2 Bq/mL and 36.8 Bq/mL and 42.3 Bq/mL and 37.6 Bq/mL and 28.6 Bq/mL and 69.7 Bq/mL
O=C(O)c1ccc(-c2nc(-c3ccccc3)c3sccn23)cc1  remaining activity (BLVRB (Homo sapiens, UniProt P30043); concentration not given): 100%
C[C@](C(=O)NC1CCOCC1)(c1cncnc1)N(C(=O)[C@H](F)Cl)c1ccc(OC(F)(F)Cl)cc1  remaining activity (Kallikrein-2 (Homo sapiens, UniProt P20151); enzyme activity, inhibitor; 10 µM): 103%
CC(C)(O)C(=O)N1CCC(n2cc(Cc3ccc4c5c(cccc35)C(=O)N4C3CCC(=O)NC3=O)cn2)CC1 (stereo not drawn)  remaining activity (CRBN/Zinc finger protein Aiolos; protein level, degrader, western blot; NCI-H929; 100 pM, 4 h): 98.7%
COC(=O)[C@@]1(C)C=C(C(=O)Nc2cccc(C(=O)Nc3ccc(Nc4nccc(-c5cccnc5)n4)c(C)c3)c2)C(=O)CC1  remaining activity (MAPK9; enzyme activity, inhibitor; 0.0007527 µM, unit not given; reference: vehicle): 0.983
COC(=O)c1cc2cc3c(cc2oc1=O)N(CC(=O)NC(Cc1cccc(Cl)c1)C(=O)NCC=CS(=O)(=O)c1ccccc1)CCC3 (stereo not drawn)  remaining activity (CTSS; inhibitor; 5 µM, 60 min, added: Z-Phe-Arg-AMC; reference: uninhibited control): < 1%
O=C1CCC(N2Cc3c(OCc4cn(C5CCNCC5)nn4)cccc3C2=O)C(=O)N1 (stereo not drawn)  remaining activity (CRBN/Zinc finger protein Aiolos; protein level, degrader, western blot; NCI-H929; 10 nM, 4 h): 75%
C[n+]1ccc(/C=N/NC(=O)c2ccc3ccc4ccc(C(=O)N/N=C/c5cc[n+](C)c6ccccc56)nc4c3n2)c2ccccc21  ΔTm (hp2 hairpin duplex DNA; FRET melting; 1 µM, added: ds26 10 µM): 0.3 ± 0.2 °C
CC(C)[C@@H]1NC(=O)[C@H](Cc2ccccc2)NC(=O)CSC[C@@H](C(N)=O)NC(=O)[C@H](CCC(=O)O)NC(=O)[C@H](CO)NC(=O)[C@H](Cc2c[nH]c3cccc(Cl)c23)NC(=O)[C@H](C2CCCCC2)NC(=O)[C@H](C(C)C)NC(=O)[C@H](Cc2ccc(O)cc2)NC(=O)[C@H](CC(=O)O)NC(=O)[C@H](Cc2c[nH]c3ccccc23)NC(=O)[C@H](Cc2ccc(N)nc2)NC(=O)[C@H](Cc2c[nH]c3ccc(Cl)cc23)NC(=O)[C@H](CCC(=O)O)NC1=O  remaining activity (IL1RL2; reporter gene (SEAP), inhibitor, HEK-Blue IL-36R reporter; HEK-Blue IL-36R cells; 100 µM, 6 h, added: IL-36β 3 ng/mL): 18.9%
O=C1CCC(N2C(=O)c3cccc4c(Cc5cnn(C6CCN(C(=O)CO)CC6)c5)ccc2c34)C(=O)N1 (stereo not drawn)  remaining activity (CRBN/Zinc finger protein Aiolos; protein level, degrader, western blot; NCI-H929; 100 pM, 4 h): 85.3%
O=C(O)c1cc(O)c2c(c1)C(=O)c1cccc(O)c1C2=O  remaining activity (PNLIP; enzyme activity, inhibitor, fluorescence; 50 µM): 7.85%
O=S(=O)(c1ccc(-c2ccc3ncnc(Nc4ccc(OCc5cccc(F)c5)c(Cl)c4)c3c2)cc1)N1CCCC1  EC50 (Leishmania major; intracellular amastigote growth, luciferase; RAW264.7 macrophages): > 15 µM
O=C=[N][Ru-4]123([n]4c5ccc(O)cc5c5c6c(c7cc(F)c[n+]1c7c54)C(=O)NC6=O)[S+]1CC[S+]2CC[S+]3CC1 (stereo not drawn)  remaining activity (Abl2 (Mus musculus, UniProt Q4JIM5); enzyme activity; 100 nM, mouse enzyme, added: 10 µM ATP; reference: untreated): 113%

Repeated from above:
CC(C)C[C@H](NC(=O)[C@H](Cc1ccc(O)cc1)NC(=O)[C@@H](CCCNC(=N)N)NC(=O)[C@@H](CO)NC(=O)[C@H](Cc1ccccc1)NC(=O)[C@H](CC1CCCCC1)NC(=O)[C@H](CC(=O)O)NC(=O)CN1CCN(CC(=O)O)CCN(CC(=O)O)CCN(CC(=O)O)CC1)C(=O)N[C@@H](Cc1c[nH]c2ccccc12)C(=O)N[C@@H](CO)C(=O)O [copper-64 labelled]  activity concentration (human, brain; concentration not given, 24 h): 31.2 Bq/mL and 36.8 Bq/mL and 42.3 Bq/mL and 37.6 Bq/mL and 28.6 Bq/mL and 69.7 Bq/mL
CC(C)[C@@H]1NC(=O)[C@H](Cc2ccccc2)NC(=O)CSC[C@@H](C(N)=O)NC(=O)[C@H](CCC(=O)O)NC(=O)[C@H](CO)NC(=O)[C@H](Cc2c[nH]c3cccc(Cl)c23)NC(=O)[C@H](C2CCCCC2)NC(=O)[C@H](C(C)C)NC(=O)[C@H](Cc2ccc(O)cc2)NC(=O)[C@H](CC(=O)O)NC(=O)[C@H](Cc2c[nH]c3ccccc23)NC(=O)[C@H](Cc2ccc(N)nc2)NC(=O)[C@H](Cc2c[nH]c3ccc(Cl)cc23)NC(=O)[C@H](CCC(=O)O)NC1=O  remaining activity (IL1RL2; reporter gene (SEAP), inhibitor, HEK-Blue IL-36R reporter; HEK-Blue IL-36R cells; 100 µM, 6 h, added: IL-36β 3 ng/mL): 18.9%
C[C@](C(=O)NC1CCOCC1)(c1cncnc1)N(C(=O)[C@H](F)Cl)c1ccc(OC(F)(F)Cl)cc1  remaining activity (Kallikrein-2 (Homo sapiens, UniProt P20151); enzyme activity, inhibitor; 10 µM): 103%
